Measurements pooled from the literature.
Each numbered part is a random draw from the data of one study; scales do not carry over between parts. Values joined by “and” are separate records of one study, mostly repeats; a detail may differ.
Chain of UniProt P10721 (whole entry, unmodified, looked up): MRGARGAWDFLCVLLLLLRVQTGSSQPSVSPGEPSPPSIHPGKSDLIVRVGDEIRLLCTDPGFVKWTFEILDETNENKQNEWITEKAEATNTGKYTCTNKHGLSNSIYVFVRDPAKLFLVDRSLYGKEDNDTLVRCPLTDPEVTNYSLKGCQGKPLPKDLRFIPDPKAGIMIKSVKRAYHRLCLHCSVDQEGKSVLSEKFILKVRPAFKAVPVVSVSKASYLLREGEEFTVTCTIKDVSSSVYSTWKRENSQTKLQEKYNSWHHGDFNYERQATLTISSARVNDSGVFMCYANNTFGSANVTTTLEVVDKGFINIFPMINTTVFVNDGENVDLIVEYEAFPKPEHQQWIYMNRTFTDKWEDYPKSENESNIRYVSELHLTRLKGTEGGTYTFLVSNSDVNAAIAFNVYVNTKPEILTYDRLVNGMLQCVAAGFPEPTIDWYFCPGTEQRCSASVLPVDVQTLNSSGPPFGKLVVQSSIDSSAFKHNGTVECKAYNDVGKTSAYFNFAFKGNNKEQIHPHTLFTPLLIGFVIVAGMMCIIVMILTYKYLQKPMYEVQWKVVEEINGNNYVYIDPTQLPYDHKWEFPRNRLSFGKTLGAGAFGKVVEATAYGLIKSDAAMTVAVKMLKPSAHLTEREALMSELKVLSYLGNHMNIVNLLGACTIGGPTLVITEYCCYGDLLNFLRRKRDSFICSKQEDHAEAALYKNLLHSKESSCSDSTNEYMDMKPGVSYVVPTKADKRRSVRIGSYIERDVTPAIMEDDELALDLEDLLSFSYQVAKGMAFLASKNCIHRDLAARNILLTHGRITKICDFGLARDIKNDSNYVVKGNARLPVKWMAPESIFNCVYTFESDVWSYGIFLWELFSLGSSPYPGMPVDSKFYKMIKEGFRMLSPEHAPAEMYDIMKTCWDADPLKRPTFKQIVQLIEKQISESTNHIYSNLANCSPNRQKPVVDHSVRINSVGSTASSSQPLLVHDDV
Chain of UniProt P04049 (whole entry, looked up): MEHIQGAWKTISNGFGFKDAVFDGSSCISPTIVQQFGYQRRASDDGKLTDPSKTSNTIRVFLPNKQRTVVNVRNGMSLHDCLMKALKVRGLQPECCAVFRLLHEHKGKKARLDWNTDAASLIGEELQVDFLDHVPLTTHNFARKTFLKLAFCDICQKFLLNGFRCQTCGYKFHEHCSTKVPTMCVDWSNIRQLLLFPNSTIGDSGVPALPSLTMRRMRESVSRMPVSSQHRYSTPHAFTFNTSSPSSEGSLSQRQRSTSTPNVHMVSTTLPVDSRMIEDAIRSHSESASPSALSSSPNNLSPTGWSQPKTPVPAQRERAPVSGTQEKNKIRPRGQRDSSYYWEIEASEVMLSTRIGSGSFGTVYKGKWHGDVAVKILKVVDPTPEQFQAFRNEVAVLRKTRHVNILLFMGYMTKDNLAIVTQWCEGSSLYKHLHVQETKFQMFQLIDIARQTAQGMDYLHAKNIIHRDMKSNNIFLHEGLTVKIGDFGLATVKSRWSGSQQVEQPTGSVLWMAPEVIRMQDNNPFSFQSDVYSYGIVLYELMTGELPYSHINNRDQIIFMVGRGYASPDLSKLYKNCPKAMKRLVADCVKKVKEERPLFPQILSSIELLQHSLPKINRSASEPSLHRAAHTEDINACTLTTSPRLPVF
Chain of UniProt P07947 (whole entry, looked up): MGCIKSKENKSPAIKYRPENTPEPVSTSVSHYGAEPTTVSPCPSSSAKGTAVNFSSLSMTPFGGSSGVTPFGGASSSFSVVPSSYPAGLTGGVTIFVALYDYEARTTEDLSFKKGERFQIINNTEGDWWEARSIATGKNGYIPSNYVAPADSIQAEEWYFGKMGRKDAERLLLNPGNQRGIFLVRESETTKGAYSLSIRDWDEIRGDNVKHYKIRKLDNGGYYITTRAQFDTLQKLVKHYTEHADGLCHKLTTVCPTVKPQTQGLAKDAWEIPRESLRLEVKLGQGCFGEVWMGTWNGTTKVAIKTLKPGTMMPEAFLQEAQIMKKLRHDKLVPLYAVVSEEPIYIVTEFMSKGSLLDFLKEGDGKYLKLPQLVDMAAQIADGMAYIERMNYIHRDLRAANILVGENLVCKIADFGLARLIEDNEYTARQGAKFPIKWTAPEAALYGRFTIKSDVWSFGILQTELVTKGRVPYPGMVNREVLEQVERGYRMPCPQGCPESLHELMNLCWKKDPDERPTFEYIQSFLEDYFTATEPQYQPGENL
Chain of UniProt P50750 (whole entry, looked up): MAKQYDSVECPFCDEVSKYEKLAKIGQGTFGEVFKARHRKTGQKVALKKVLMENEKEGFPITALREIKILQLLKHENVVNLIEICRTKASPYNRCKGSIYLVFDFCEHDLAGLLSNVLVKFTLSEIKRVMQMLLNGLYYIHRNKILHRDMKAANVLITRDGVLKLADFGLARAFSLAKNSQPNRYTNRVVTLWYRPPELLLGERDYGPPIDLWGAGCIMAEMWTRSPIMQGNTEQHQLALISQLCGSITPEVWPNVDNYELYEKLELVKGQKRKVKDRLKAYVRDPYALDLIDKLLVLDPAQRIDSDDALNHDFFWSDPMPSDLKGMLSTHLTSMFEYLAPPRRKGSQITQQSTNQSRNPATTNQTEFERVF
Chain of UniProt Q7KZI7 (whole entry, looked up): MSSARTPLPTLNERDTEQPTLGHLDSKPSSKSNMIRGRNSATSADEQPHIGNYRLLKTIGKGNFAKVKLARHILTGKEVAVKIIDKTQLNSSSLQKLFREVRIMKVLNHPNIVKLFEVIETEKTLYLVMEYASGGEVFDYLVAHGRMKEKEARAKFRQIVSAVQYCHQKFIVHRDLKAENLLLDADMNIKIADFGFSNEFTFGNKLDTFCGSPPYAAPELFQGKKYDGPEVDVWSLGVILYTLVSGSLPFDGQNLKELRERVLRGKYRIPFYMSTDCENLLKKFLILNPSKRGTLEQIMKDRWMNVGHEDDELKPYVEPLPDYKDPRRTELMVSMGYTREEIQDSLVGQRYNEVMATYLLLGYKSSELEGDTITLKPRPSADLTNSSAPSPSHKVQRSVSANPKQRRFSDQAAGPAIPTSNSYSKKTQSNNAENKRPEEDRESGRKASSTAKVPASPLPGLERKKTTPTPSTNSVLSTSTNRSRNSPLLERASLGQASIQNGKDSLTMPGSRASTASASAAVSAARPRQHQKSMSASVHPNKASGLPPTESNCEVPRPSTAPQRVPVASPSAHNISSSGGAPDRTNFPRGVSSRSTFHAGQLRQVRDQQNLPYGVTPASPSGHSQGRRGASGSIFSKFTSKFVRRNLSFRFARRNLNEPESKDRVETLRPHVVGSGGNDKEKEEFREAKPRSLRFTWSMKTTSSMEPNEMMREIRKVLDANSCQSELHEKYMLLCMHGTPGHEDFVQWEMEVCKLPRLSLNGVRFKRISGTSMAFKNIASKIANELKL
Chain of UniProt Q96L34 (whole entry, looked up): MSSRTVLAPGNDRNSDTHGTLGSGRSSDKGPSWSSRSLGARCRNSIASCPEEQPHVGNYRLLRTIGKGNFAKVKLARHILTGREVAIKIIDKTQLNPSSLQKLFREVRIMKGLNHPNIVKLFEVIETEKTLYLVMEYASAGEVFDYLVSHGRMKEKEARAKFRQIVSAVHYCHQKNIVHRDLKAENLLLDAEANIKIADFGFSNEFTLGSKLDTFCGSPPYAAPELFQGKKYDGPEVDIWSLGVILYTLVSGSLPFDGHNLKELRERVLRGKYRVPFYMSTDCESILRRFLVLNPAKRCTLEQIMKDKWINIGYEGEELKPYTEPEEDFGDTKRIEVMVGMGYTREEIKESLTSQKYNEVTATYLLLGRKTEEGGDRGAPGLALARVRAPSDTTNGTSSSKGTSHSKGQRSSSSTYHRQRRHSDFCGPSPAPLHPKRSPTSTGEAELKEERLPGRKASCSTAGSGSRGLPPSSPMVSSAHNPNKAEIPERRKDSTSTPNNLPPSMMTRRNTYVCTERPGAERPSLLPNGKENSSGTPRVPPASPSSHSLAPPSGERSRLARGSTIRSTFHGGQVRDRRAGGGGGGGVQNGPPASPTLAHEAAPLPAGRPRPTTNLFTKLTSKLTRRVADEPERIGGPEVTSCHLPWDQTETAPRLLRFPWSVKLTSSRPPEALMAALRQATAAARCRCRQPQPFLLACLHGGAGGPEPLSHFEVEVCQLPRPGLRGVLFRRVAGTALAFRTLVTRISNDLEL
Chain of UniProt P49761 (whole entry, looked up): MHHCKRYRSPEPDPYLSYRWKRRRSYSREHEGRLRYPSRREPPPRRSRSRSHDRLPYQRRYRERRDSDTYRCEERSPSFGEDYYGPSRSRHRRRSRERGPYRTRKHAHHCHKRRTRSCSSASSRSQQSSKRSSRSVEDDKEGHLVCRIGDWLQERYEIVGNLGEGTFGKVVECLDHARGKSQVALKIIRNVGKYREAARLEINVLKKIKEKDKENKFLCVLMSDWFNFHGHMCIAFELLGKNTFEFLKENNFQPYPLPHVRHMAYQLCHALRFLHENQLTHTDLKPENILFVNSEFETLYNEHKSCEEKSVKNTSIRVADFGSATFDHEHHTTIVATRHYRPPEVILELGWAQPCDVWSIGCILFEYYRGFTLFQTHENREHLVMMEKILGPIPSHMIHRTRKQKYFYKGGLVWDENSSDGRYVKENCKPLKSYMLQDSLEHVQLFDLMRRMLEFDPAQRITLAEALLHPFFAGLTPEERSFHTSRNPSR
Chain of UniProt Q6P2M8 (whole entry, looked up): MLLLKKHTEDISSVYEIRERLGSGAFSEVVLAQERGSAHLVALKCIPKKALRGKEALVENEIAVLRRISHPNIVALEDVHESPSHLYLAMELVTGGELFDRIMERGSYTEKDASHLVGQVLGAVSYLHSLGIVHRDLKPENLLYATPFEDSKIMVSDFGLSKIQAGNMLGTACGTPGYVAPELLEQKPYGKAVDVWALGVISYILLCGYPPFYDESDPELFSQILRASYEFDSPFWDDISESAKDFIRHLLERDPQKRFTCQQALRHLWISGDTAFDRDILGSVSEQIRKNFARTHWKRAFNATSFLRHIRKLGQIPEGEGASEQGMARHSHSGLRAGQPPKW

Study 1 — species: mouse; medium: microsomes or S9; concentration: 2 µM; time: 0.5 h
With CC(C)CCn1cnc2c(cnn2-c2ccc(Cl)cc2)c1=O the remaining compound was less than 1%.
CCOc1cc(=O)n2c(c1C(=O)Nc1cc(Cl)ccc1OC)CCCC2 gave a remaining compound of 13.5%.
With CCC(=O)N(CCO)Cc1cc2cc(C)cc(C)c2[nH]c1=O the remaining compound was 96.5%.
CCOC(=O)N1CCN(C(=O)C2CCC(CNS(=O)(=O)CC)CC2)CC1 (stereo not shown) has a remaining compound of 67.7%.
For Cc1ccccc1CS(=O)(=O)c1ncc(CN(CCN(C)C)C(=O)NC(C)C)n1CC(C)C, the remaining compound was 0.682%.
The remaining compound of O=c1c2sc3nc(N4CCOCC4)c4c(c3c2ncn1CCc1ccccc1)CCCC4 is reported as 16%.
COc1ccc(-c2c(-c3ccccc3)nn(-c3ccc(C)cc3)c2N)cc1OC gave a remaining compound of 3.65%.

Study 2 — Structure (SMILES): N#CC(=C(N)Sc1ccc(N)cc1)c1ccccc1C(F)(F)F; read-out: enzyme activity; mode: inhibitor; concentration: 0.5 µM; reference: control
It gave 96.9% for remaining activity (Serine/threonine-protein kinase PLK3 (PLK3, Homo sapiens, UniProt Q9H4B4)).
The remaining activity was 86% (Mitogen-activated protein kinase 1 (MAPK1, Homo sapiens, UniProt P28482)).
For Serine/threonine-protein kinase MRCK beta (CDC42BPB, Homo sapiens, UniProt Q9Y5S2): remaining activity read 104%.
For Cyclin-dependent kinase 9, with cyclin K (CDK9, Homo sapiens, UniProt P50750): remaining activity read 98%.
It gave 77.2% for remaining activity (Hepatocyte growth factor receptor (MET, Homo sapiens, UniProt P08581)).
For Serine/threonine-protein kinase Nek3 (NEK3, Homo sapiens, UniProt P51956): remaining activity read 99.6%.
For MAP/microtubule affinity-regulating kinase 4 (MARK4, Homo sapiens, UniProt Q96L34): remaining activity read 101%.
For Mitogen-activated protein kinase 14 (MAPK14, Homo sapiens, UniProt Q16539): remaining activity read 96%.
For Dual specificity protein kinase CLK3 (CLK3, Homo sapiens, UniProt P49761): remaining activity read 103%.
The remaining activity was 112% (Ribosomal protein S6 kinase alpha-4 (RPS6KA4, Homo sapiens, UniProt O75676)).
For cGMP-dependent protein kinase 2 (PRKG2, Homo sapiens, UniProt Q13237): remaining activity read 113%.
The remaining activity was 124% (Serine/threonine-protein kinase MARK2 (MARK2, Homo sapiens, UniProt Q7KZI7)).
The remaining activity was 98.9% (Calcium/calmodulin-dependent protein kinase type 1B (PNCK, Homo sapiens, UniProt Q6P2M8)).
For Cyclin-dependent kinase 1, with cyclin A (CDK1, Homo sapiens, UniProt P06493): remaining activity read 91.2%.

Study 3 — cell line: mouse MPNST tumor cells; method: high-content nuclear imaging; refers to: cell number; concentration: 10 µM; time: 12 h; setting: mean of 2 replicates; reference: plate mean; direction: higher = more cells
With S=c1[nH]cnc2nc[nH]c12 the nuclei count was -0.356 z-score.
CC1(C)O[C@@H]2C[C@H]3[C@@H]4CCC5=CC(=O)CC[C@]5(C)[C@@]4(F)[C@@H](O)C[C@]3(C)[C@]2(C(=O)CCl)O1 gave a nuclei count of 2.44 z-score.
The nuclei count of O=Nc1c(O)[nH]c2c(Cl)c(Cl)ccc12 is reported as 0.901 z-score.
O=C(Nc1cc(C(F)(F)F)ccc1O)Nc1cc(C(F)(F)F)ccc1O gave a nuclei count of -0.954 z-score.
O=C(NCC(=O)N1CCCC1)Nc1ccc2cnccc2c1 has a nuclei count of -0.786 z-score and 0.521 z-score.
The nuclei count of CCCCCCN(CCCCCC)C(=O)Cc1c(-c2ccc(F)cc2)[nH]c2ccccc12 is reported as 0.915 z-score.

Study 4 — read-out: cell-free assay; method: competition with immobilised ligand; concentration: 1 µM
Structure (SMILES): CCc1ccccc1C(=O)Nc1n[nH]c2c(C)c(F)c(C3C(C#N)=C(C)N(C)C(C)=C3C#N)cc12
Tyrosine-protein kinase Yes (YES1, Homo sapiens, UniProt P07947) — remaining binding: 86%.
BDNF/NT-3 growth factors receptor (NTRK2, Homo sapiens, UniProt Q16620) — remaining binding: 100%.
It gave 98% for remaining binding (Mast/stem cell growth factor receptor Kit (KIT, Homo sapiens, UniProt P10721, T670I/V559D)).
It gave 91% for remaining binding (Receptor tyrosine-protein kinase erbB-3 (ERBB3, Homo sapiens, UniProt P21860)).
The remaining binding was 63% (RAF proto-oncogene serine/threonine-protein kinase (RAF1, Homo sapiens, UniProt P04049)).
The remaining binding was 100% (Rho-associated protein kinase 1 (ROCK1, Homo sapiens, UniProt Q13464)).

Mixed results
For COc1ccc(-c2c(Nc3ccccn3)[nH]c3c(C4=CCCCC4)c(-c4ccccc4)nn3c2=O)cc1, “AUC(0-inf) observed, dose-normalised” read 2090 ng·h/mL/mg (LC-MS/MS; human, plasma; 50 mg once daily).

For quick reference, copied from above (study 2):
It gave 77.2% for remaining activity (Hepatocyte growth factor receptor (MET, Homo sapiens, UniProt P08581)).
For MAP/microtubule affinity-regulating kinase 4 (MARK4, Homo sapiens, UniProt Q96L34): remaining activity read 101%.
The remaining activity was 98.9% (Calcium/calmodulin-dependent protein kinase type 1B (PNCK, Homo sapiens, UniProt Q6P2M8)).
